Experimental data of several laboratories.
Parts stem from different laboratories: compare values within a part only. Changes are numbered by the printed parent chain.

Set 1 — technique: Spec-seq; molecule type: double-stranded DNA, one strand shown; sample: in vitro; concentration: not given; notes: whole probe, mean of replicates; reference: not given; direction: lower = stronger binding; all sequences stand within: GAGTCGTCTCGTCAGCAC … CCGTAGAGCACTCAGGTC
Target: POU domain, class 5, transcription factor 1, POU domain (Pou5f1, Mus musculus, UniProt P20263, residues 131-289)
UniProt P20263, sequence (131-289, looked up): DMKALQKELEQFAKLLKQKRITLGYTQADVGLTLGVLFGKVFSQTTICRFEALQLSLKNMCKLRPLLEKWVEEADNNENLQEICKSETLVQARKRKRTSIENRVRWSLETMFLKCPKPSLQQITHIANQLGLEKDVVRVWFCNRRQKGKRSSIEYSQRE
Sequence | relative binding energy
ATGCTTGG | 0.779 ln ratio
ATGCTGCT | 0.656 ln ratio
ATAAGAAT | -0.0476 ln ratio
ATGCATCA | -0.369 ln ratio
AGCCTAAT | 0.613 ln ratio
ATATGGAT | -0.379 ln ratio
ATGCATAA | -1.89 ln ratio
GCCCTAAT | 0.801 ln ratio

Set 2 — target: CCNB2, cyclin fold, Cln2 fusion (human); technique: yeast growth competition, sequencing; sample: yeast; notes: weak parent motif; reference: not given; direction: higher = stronger binding
Parent: viral docking peptide; KGVKRKLFAEDSS; partner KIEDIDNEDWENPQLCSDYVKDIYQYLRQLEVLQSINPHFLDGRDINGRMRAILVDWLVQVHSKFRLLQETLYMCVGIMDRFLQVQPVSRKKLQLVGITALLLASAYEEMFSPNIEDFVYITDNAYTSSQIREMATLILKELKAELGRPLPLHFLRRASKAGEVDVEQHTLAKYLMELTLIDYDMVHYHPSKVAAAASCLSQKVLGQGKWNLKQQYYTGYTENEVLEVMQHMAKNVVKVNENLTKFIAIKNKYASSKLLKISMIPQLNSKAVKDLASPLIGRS
Substitution | normalised enrichment score
KGVKRKLFAEVSS [D11V] | 0.454
KGVRRKLFAEDSS [K4R] | 1.49
KGVERKLFAEDSS [K4E] | 0.143
KGVKTKLFAEDSS [R5T] | 0.284
KGVKRKLVAEDSS [F8V] | 0.62
KGVKRKLFAELSS [D11L] | 0.334
KGVKRKLFAEDAS [S12A] | 0.876
KGVKRVLFAEDSS [K6V] | 0.66
KGVVRKLFAEDSS [K4V] | 0.347
KGVKRKLFAEDCS [S12C] | 0.984
KGVKMKLFAEDSS [R5M] | 0.127
KGVKRKLFAEDYS [S12Y] | 0.75
KGVKRKLFAEHSS [D11H] | 0.897
KGVKRNLFAEDSS [K6N] | 0.182
KGVKRKLFAECSS [D11C] | 0.682
KGVKRKLFAEDHS [S12H] | 0.561
KKVKRKLFAEDSS [G2K] | 0.755
KGVKRKLFNEDSS [A9N] | 0.513
KGVKRKLFAGDSS [E10G] | 0.711
KGVKRQLFAEDSS [K6Q] | 1
KGVPRKLFAEDSS [K4P] | 0.0426
KGYKRKLFAEDSS [V3Y] | 0.476
KGVKRKLFAEDMS [S12M] | 0.59
KGVKRKQFAEDSS [L7Q] | 0.731
KGVKRKLFAEYSS [D11Y] | 0.359

Set 3 — target: inorganic phosphate, free oxyanion; technique: microfluidic competitive inhibition; sample: in vitro, cell-free expressed; concentration: not given; direction: lower = stronger binding
Notes: derived from inhibition constants, unchanged parent 615000 nM
Parent: PafA, mature enzyme, eGFP fusion (Elizabethkingia meningoseptica, UniProt Q9KJX5); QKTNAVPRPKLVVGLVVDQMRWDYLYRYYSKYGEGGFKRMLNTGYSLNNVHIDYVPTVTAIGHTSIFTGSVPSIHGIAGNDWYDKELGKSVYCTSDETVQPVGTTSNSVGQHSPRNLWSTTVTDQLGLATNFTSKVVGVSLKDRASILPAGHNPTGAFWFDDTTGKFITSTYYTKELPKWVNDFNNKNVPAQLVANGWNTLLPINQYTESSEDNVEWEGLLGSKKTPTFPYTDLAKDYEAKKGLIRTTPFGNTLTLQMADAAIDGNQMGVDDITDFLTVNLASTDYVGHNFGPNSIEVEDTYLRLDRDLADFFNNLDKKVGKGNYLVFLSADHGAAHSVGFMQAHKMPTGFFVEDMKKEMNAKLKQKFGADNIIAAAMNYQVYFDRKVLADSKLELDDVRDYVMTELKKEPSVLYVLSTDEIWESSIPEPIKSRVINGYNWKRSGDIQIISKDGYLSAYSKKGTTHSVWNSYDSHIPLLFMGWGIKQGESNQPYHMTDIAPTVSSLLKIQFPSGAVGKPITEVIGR
Substitution | phosphate dissociation constant [µM]
I422G | 475
V71A | 468
F291G | 405
D81G | 734

Set 4 — technique: protein binding microarray; molecule type: double-stranded DNA, one strand shown; sample: in vitro; concentration: not given; reference: not given; direction: higher = stronger binding
Target: Histone acetyltransferase KAT6A, winged helix 2, GST fusion (KAT6A, Homo sapiens, UniProt Q92794, residues 85-181)
Notes: 8-mer, flanks averaged, mean of 2 arrays, mostly near background
Residues (chain): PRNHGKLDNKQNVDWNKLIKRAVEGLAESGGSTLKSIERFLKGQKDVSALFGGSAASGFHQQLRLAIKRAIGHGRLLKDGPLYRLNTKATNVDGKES
Sequence | E-score
CCTTGCCC | 0.288
TACCGCTA | -0.192
ACTACGCA | 0.0173
CAGTGCCG | 0.144
ACGGGTTA | -0.193
AGAGCAGC | 0.0431
AAGGGGTC | -0.209
AGACTTTC | -0.306

Set 5 — observed: binding; technique: phage display NGS; molecule type: peptide; notes: panning round 2; reference: input library
Target: UDP-N-acetylglucosamine--peptide N-acetylglucosaminyltransferase 110 kDa subunit (OGT, Homo sapiens, UniProt O15294)
Residues (O15294 1-1046): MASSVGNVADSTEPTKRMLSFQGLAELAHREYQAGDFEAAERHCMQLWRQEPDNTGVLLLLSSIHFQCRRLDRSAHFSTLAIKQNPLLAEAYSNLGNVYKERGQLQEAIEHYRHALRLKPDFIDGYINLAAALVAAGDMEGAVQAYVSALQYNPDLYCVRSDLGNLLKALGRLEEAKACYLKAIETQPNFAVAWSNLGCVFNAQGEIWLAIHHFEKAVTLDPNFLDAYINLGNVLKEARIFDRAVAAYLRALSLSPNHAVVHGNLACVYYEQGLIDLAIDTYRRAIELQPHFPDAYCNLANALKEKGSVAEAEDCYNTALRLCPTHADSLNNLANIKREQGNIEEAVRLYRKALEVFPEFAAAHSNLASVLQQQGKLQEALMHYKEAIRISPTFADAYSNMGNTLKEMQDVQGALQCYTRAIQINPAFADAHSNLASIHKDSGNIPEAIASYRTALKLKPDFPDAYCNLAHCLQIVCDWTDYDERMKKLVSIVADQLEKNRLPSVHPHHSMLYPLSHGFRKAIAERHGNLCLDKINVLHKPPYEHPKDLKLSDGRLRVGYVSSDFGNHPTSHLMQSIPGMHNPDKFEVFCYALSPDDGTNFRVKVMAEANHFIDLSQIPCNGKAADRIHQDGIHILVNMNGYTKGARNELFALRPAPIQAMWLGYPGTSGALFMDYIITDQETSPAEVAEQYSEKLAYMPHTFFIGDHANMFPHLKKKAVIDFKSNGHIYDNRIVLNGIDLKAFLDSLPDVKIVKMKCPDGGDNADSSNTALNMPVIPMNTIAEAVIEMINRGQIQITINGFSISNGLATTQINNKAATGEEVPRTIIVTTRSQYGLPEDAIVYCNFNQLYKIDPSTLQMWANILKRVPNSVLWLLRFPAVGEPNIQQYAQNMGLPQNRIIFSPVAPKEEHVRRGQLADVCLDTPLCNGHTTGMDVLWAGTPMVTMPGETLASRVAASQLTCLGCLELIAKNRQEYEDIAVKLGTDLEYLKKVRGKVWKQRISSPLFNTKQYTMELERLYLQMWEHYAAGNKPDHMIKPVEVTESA
Sequence | minimum log2 enrichment ratio
WIRSPHQHGQIHRS | 2.79
DYAQFMPKYLIKQYE | 2.85
SSNEPHYPPKYQMVI | 3.64
HFRMGHNRETTHVG | 2.65
HPQMHPFRGQQHHVY | 2.34
WFPHQAHRADIISA | 1.44
IPNYIHMTHYHQHAH | 2.8

Mixed results
Molecule | target | test | system | conditions | scale | measurement | value
PhoQ, residues 284 288 289 292 302 303 TNASYF | PhoP, residues 12 14 15 18 19 NYFTV (Escherichia coli, UniProt P23836) | Sort-seq, item: YFP reporter | E. coli | PhoQ-PhoP variant library, with: 10 µM Mg2+ | reference: high Mg2+ state, higher = stronger signaling | fold induction | 2.59

For quick reference, copied from above (set 5):
Sequence | minimum log2 enrichment ratio
WIRSPHQHGQIHRS | 2.79
DYAQFMPKYLIKQYE | 2.85
SSNEPHYPPKYQMVI | 3.64
HFRMGHNRETTHVG | 2.65
HPQMHPFRGQQHHVY | 2.34
WFPHQAHRADIISA | 1.44
IPNYIHMTHYHQHAH | 2.8
